Published values gathered from unrelated publications.
Numbers after ± are the reported error.

Structure (SMILES)	test system	conditions	tissue uptake
CCCC[C@H](NC(=O)CCCCCCCNC(=O)CN1CCN(CC(=O)O)CCN(CC(=O)O)CC1)C(=O)N[C@H]1CC(=O)NCCCC[C@@H](C(N)=O)NC(=O)[C@H](Cc2c[nH]c3ccccc23)NC(=O)[C@H](CCCNC(=N)N)NC(=O)[C@@H](Cc2ccccc2)NC(=O)[C@H](Cc2c[nH]cn2)NC1=O [fluorine-18 labelled]	C57 mice, B16/F10 melanoma, kidneys	intravenous, 1 h, together with: NDP-MSH 10 µg	6.67 ± 1.16 %ID/g
O=C(NCC1OC2CCC=CCCC2O1)c1ccc(COCCOCCOCC[18F])cc1 (centres unmarked)	healthy female BALB/c nude mice, lungs	intravenous, 7.4 MBq per mouse, 60 min	2.1 ± 0.5 %ID/g
[123I]c1ccc2nc(-c3ccc(-n4ccnn4)nc3)cn2c1	male Wistar rat, large intestine	intravenous, 4 MBq, 14 h	0.609 ± 0.274 %ID/g
CCOC(=O)CNC(=O)CN1CCN(CC(=O)NCC(=O)OCC)CCN(CC(=O)NCC(=O)OCC)CCN(CC(=O)NCC(=O)OCC)CC1.[177Lu+3]	Sprague-Dawley rat, bone	intravenous (tail vein), dose not given, 2 h	0.149 ± 0.063 % injected dose/g
COc1cccc(OC)c1-c1cc(C(=O)NC2(C(=O)O)C3CC4CC(C3)CC2C4)nn1-c1ccc(C(=O)N(C)CCCN(C)C(=O)[C@H](CCCCNC(=O)[C@H](CC(C)C)NC(=O)C2OC2C(=O)O)NC(=O)CN2CCN(CC(=O)[O-])CCN(CC(=O)[O-])CCN(CC(=O)[O-])CC2)cc1C(C)C.[177Lu+3] (mixture of isomers)	mouse, HT-29 xenograft, kidney	72 h post injection	3.1 %ID/g
N#C[C@@H]1CC(F)(F)CN1C(=O)CNC(=O)c1ccnc2c(NC(=O)[C@@H](N)CCCCNC(=O)CCOCCOCCOCCOCCOCCOCCNC(=O)CN3CCN(CC(=O)[O-])CCN(CC(=O)[O-])CCN(CC(=O)[O-])CC3)cccc12.[177Lu+3]	mouse, U-87 MG tumour xenograft, spleen	4 h	0.14 ± 0.01 %ID/g
O=C(CN1CCN(CC(=O)NCc2ncccc2O)CCN(CC(=O)NCc2ncccc2O)CCN(CC(=O)NCc2ncccc2O)CC1)NCc1ncccc1O.[177Lu+3]	Sprague-Dawley rat, heart	intravenous (tail vein), dose not given, 2 h	0.048 ± 0.01 % injected dose/g
COc1ccc(Nc2nc(Nc3ccc(OCCOCC[18F])cc3)ncc2Br)cc1	ICR mice, S180 tumour, muscle	intravenous, 30 min, together with: PF-562271 33 mg/kg oral 1 h before	2.64 ± 0.13 %ID/g
O=C(O)CCCOc1ccc([18F])cc1-c1cc(-c2ccccc2C(F)(F)F)n(-c2ccccc2)n1	mouse, small intestine	intravenous, dose not given, 30 min	3.52 ± 0.34 %ID/g
COc1cccc(OC)c1-c1cc(C(=O)NC2(C(=O)O)C3CC4CC(C3)CC2C4)nn1-c1ccc(C(=O)N(C)CCCN(C)CCCN(C)C(=O)[C@H](CCCCNC(=O)[C@H](CC(C)C)NC(=O)C2OC2C(=O)O)NC(=O)CN2CCN(CC(=O)[O-])CCN(CC(=O)[O-])CCN(CC(=O)[O-])CC2)cc1C(C)C.[177Lu+3] (mixture of isomers)	mouse HT-29 xenograft, large intestine	72 h post injection, biodistribution	0.158 %ID/g
CN(CCCO)Cc1ccc(-c2noc(-c3ccc(OCC[18F])c(C(F)(F)F)c3)n2)cc1F	Sprague-Dawley rats, male, pancreas	5 min post-injection	1.68 ± 0.14 %ID/g
N#C[C@@H]1CC(F)(F)CN1C(=O)CNC(=O)c1ccnc2c(NC(=O)CCOCCOCCOCCOCCOCCOCCNC(=O)[C@H](CCCCNC(=O)CN3CCN(CC(=O)[O-])CCN(CC(=O)[O-])CCN(CC(=O)[O-])CC3)NC(=O)CCCc3ccc(I)cc3)cccc12.[177Lu+3]	mouse, U-87 MG tumour xenograft, spleen	24 h	0.37 ± 0.24 %ID/g
CCCC[C@H](NC(=O)COCCOCCNC(=O)CN1CCN(CC(=O)O)CCN(CC(=O)O)CC1)C(=O)N[C@H]1CC(=O)NCCCC[C@@H](C(N)=O)NC(=O)[C@H](Cc2c[nH]c3ccccc23)NC(=O)[C@H](CCCNC(=N)N)NC(=O)[C@@H](Cc2ccccc2)NC(=O)[C@H](Cc2c[nH]cn2)NC1=O [fluorine-18 labelled]	C57 mice B16-F10 melanoma, bone	intravenous, 0.37 MBq, 0.5 h	4.15 ± 0.67 %ID/g
O=C(NCC1OC2CCC=CCCC2O1)c1ccc([18F])nc1 (centres unmarked)	healthy female BALB/c nude mice, lungs	intravenous, 7.4 MBq per mouse, 2 min	5.4 ± 0.6 %ID/g
COc1cccc(OC)c1-c1cc(C(=O)NC2(C(=O)O)C3CC4CC(C3)CC2C4)nn1-c1ccc(C(=O)N(C)CCOCCOCCN(C)C(=O)[C@H](CCCCNC(=O)[C@H](CC(C)C)NC(=O)C2OC2C(=O)O)NC(=O)CN2CCN(CC(=O)[O-])CCN(CC(=O)[O-])CCN(CC(=O)[O-])CC2)cc1C(C)C.[177Lu+3] (mixture of isomers)	mouse, HT-29 xenograft, muscle	4 h post injection	0.42 %ID/g
Cc1cc(C)n(CCN(CCN)CCCCCCNC(=O)[C@@H](N)Cc2c[nH]cn2)n1.[99Tc+].[C-]#[O+].[C-]#[O+].[C-]#[O+]	BALB/c nude mice, A549 xenograft, brain	intravenous, 4 h	0.05 ± 0.01 %IA/g
COc1cccc(OC)c1-c1cc(C(=O)NC2(C(=O)O)C3CC4CC(C3)CC2C4)nn1-c1ccc(C(=O)N(C)CCOCCN(C)C(=O)[C@H](CCCCNC(=O)[C@H](CC(C)C)NC(=O)C2OC2C(=O)O)NC(=O)CN2CCN(CC(=O)[O-])CCN(CC(=O)[O-])CCN(CC(=O)[O-])CC2)cc1C(C)C.[177Lu+3] (mixture of isomers)	mouse, HT-29 xenograft, HT-29 tumour	24 h post injection	3.03 %ID/g
CC(C(=O)O)n1nc(Cn2cc3cc(OCC[18F])c(Cl)cc3n2)c2ccccc2c1=O (racemic)	Sprague-Dawley rat male, pancreas	120 min	0.04 ± 0.03 %ID/g
CC(C)Cc1ccc(C(C)C(=O)N[C@@H](CCCCNC(=O)CCOCCOCCOCCOCCOCCOCCNC(=O)CN2CCN(CC(=O)[O-])CCN(CC(=O)[O-])CCN(CC(=O)[O-])CC2)C(=O)Nc2cccc3c(C(=O)NCC(=O)N4CC(F)(F)C[C@H]4C#N)ccnc23)cc1.[177Lu+3] (some centres unmarked)	mouse, U-87 MG tumour xenograft, spleen	1 h	2.57 ± 0.56 %ID/g
COc1cccc(OC)c1-c1cc(C(=O)NC2(C(=O)O)C3CC4CC(C3)CC2C4)nn1-c1ccc(C(=O)NCCNC(=O)[C@H](CCCCNC(=O)[C@H](CC(C)C)NC(=O)C2OC2C(=O)O)NC(=O)CN2CCN(CC(=O)[O-])CCN(CC(=O)[O-])CCN(CC(=O)[O-])CC2)cc1C(C)C.[177Lu+3] (mixture of isomers)	mouse, HT-29 xenograft, brain	72 h post injection	0.008 %ID/g

A few entries again:
Structure (SMILES)	test system	conditions	tissue uptake
COc1cccc(OC)c1-c1cc(C(=O)NC2(C(=O)O)C3CC4CC(C3)CC2C4)nn1-c1ccc(C(=O)N(C)CCOCCOCCN(C)C(=O)[C@H](CCCCNC(=O)[C@H](CC(C)C)NC(=O)C2OC2C(=O)O)NC(=O)CN2CCN(CC(=O)[O-])CCN(CC(=O)[O-])CCN(CC(=O)[O-])CC2)cc1C(C)C.[177Lu+3] (mixture of isomers)	mouse, HT-29 xenograft, muscle	4 h post injection	0.42 %ID/g
Cc1cc(C)n(CCN(CCN)CCCCCCNC(=O)[C@@H](N)Cc2c[nH]cn2)n1.[99Tc+].[C-]#[O+].[C-]#[O+].[C-]#[O+]	BALB/c nude mice, A549 xenograft, brain	intravenous, 4 h	0.05 ± 0.01 %IA/g
